Measured values from different studies.
Each numbered part is a random draw from the data of one study; scales do not carry over between parts.

Block 1 — technique: RNA Bind-n-Seq; form: RNA; matrix: in vitro; concentration: 200 nM; notes: whole 134-nt RNA, ends assumed; added: 150 mM KCl; relative to: input library; reading: higher = stronger binding
Target: Ras GTPase-activating protein-binding protein 1, full length (G3BP1, Homo sapiens, UniProt Q13283)
Chain of UniProt Q13283 (whole entry, looked up): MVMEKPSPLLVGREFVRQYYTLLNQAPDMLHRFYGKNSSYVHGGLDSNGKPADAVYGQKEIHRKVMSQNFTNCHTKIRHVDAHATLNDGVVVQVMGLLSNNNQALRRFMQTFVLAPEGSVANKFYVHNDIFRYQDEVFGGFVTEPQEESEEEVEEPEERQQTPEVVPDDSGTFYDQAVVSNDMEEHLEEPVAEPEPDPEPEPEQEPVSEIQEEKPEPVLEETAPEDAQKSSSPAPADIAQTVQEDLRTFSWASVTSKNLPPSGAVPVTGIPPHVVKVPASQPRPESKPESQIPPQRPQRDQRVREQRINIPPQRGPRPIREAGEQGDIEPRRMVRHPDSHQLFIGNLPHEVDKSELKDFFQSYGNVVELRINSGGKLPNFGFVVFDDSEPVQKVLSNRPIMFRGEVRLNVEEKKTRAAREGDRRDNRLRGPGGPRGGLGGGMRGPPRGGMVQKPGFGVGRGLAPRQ
All sequences stand within: GGGAGUUCUACAGUCCGACGAUC … UGGAAUUCUCGGGUGUCAAGG
Oligonucleotide | log2 enrichment
UCCUCAAGUCCUGUGCUACACAUCGUAUGUACCGAAUCGGAGGAGGGGAGGAAAGUAUUAUGUUACGCCGUUCGGAUCUGCACUUCCAGC | -0.469
CCUCAAGUCCUGUGCUACACAUCGUAUGUACCGAAUCGGCCGGGCCGGCCGGGAAAGUAUUAUGUUACGCCGUUCGGAUCUGCACUUCCA | -0.398
UCCUGUGCUACACAUCGUAUGUACCGAAUCGGGUUUUUGGGUUUUUGGGAAAAAAAGGGAAAGUAUUAUGUUACGCCGUUCGGAUCUGCA | -0.371
UGUGCUACACAUCGUAUGUACCGAAUCGGGGCCCCCCCGGGGCCCCCCCGGGGCCCCCCCGGGAAAGUAUUAUGUUACGCCGUUCGGAUC | -1.23
AAGUCCUGUGCUACACAUCGUAUGUACCGAAUCGGGAGGGUUUUUGGGAAAAAGGGAAAGUAUUAUGUUACGCCGUUCGGAUCUGCACUU | -0.113
AGUCCUGUGCUACACAUCGUAUGUACCGAAUCGGGGAAAGGGGAGGGGAAAAAGGGGAAAGUAUUAUGUUACGCCGUUCGGAUCUGCACU | 0.316
CCUGUGCUACACAUCGUAUGUACCGAAUCGGUUUUUUGGGGUUUUUUGGGUUUUUUGGGGAAAGUAUUAUGUUACGCCGUUCGGAUCUGC | -0.899

Block 2 — technique: protein-binding microarray; form: double-stranded DNA, one strand shown; matrix: in vitro; concentration: 0.8 µM; notes: whole 60-bp probe, no competitor; reading: higher = stronger binding; all sequences stand within: … GTCTTGATTCGCTTGACGCTGCTG
Target: Centromere-binding protein 1, full length, N-terminal tag (CBF1, Saccharomyces cerevisiae, UniProt P17106, residues 1-351)
Chain of UniProt P17106 (whole entry, looked up): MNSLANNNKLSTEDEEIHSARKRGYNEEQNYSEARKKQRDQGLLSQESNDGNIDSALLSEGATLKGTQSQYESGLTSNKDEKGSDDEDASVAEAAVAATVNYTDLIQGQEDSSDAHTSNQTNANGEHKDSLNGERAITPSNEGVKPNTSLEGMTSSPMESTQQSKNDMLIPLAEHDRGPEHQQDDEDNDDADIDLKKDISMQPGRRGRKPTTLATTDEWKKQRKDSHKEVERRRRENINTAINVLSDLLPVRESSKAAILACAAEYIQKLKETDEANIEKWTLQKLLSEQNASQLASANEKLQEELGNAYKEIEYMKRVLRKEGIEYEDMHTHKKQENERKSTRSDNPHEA
Oligonucleotide | fluorescence intensity [a.u.]
CTATCAACTAGTAGTCACATTAGTAGTGTATTATTC | 543
CTACAGAGAGGCAATTGCGTGATTAATTCGGAATTC | 574
TGTACGAAGCTATAACTGATCACTATAGTAGTTAGG | 515
CTATGTATCTGTGCCCATGTGATCTGTACCTTTTTC | 2880
CTAATACCAGGATCTGACGTCATGGCCCAATACTTC | 502
GAACTTAACTGTACAAACGTGTATGAAGTATTGTAG | 569
CTAAACAGTGAAACCGTGGTCAGCAGCGTTCAATTC | 592
GAATTGTTTCAATTCCTGATGTTCATCAAAATATAG | 496
CTATTAAAGAACGATCAGCTGAAGCTGTGATAATTC | 531

Block 3 — technique: RNA Bind-n-Seq; form: RNA; matrix: in vitro; concentration: 365 nM; relative to: no-protein control; reading: higher = stronger binding
Target: RNA binding protein fox-1 homolog 2, RRM domain, GST-SBP tag (RBFOX2, Homo sapiens, UniProt O43251-10, residues 100-194)
Notes: natural RNA segment, single round, ends assumed
All sequences stand within: GGGAGUUCUACAGUCCGACGAUC … UGGAAUUCUCGGGUGCCAA
Construct (chain): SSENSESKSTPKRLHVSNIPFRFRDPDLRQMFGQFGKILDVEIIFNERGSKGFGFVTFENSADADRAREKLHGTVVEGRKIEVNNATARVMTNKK
Oligonucleotide | RBNS enrichment (R)
UCUCUCCUGAGUCAUGACGGGUCAUACUGAUUCUUGUUCCACUGAUGAUUUUCUCUGAUGAGGUCCUAUCUGCAAGGUCAAUGAGCAGACUUACAUGCCAUCUUCUGAGU | 0.306
CGUGGGACCCAUGACCAAAGCCCAGGAUGGCUUGGUGGGAGUGUCCCUGCUGCAUCUGCAUGAAGCCCCUGCUUUUUAGGCCUCACUCCCAUCAGAACCCUGCCUGCCCA | 17.7
UGGCCUCUGCCUGGGGCCUCCAGAAGCUGCUCCUUUACCCUCUUGGUCCCAUGGCUGAAGCUGGAGCAGCGGAUUGCUCUGGAGCAGCCAAGGCCGCCAGCGUGUGGAGC | 0.253
GAAAUCAGGAUAAUUAGUAACAAUUCUAGUUCUUUCUCUCCCCGCUCUACUUCUUUUUUUUCCCUCUUUCUCCCUUUCUCUGUCUAUCACCCUCCAUUUUUUCAUUACUC | 1.22
UAGAUGAUAUAACAAAGAAAGCAUGCUUUCUGAGGAGAUAGUGGGGAUAAUCCCUGAAGAGUUGGCAGUGUGAGUGCAACUCAUUUAUCUUCUGUGAGGUGGGAUUUUUG | 5.07
UUUACGAUUCUCACUGACUCCCCGUCUUCCUGGCAGACACAAAUAAACCCAGUGUCAGGUCUAGGAAAUUAAUGGCUAUUCUUCCCCAGAUACAUUCUGGCUUAUUUGAG | 0.237
CUUAUUUAUUUGGGGGGAAAACUAUACAUUAAAGGACCUUUGUCCUAAAGCUCUCUCCCAGGCCACCUUGUUACUCAUUGGACACGGAGAGGCAUUCAUUGUGAGGUCUA | 0.271
AGGUGCAGCACCUCCCGGAGACUGUUUCUCCCAUGGCCUCCUGAGUGAUGGGCCCUGCCUCCCUGUGCCUCAUCCUCAGGCUGGUUGGAGCAGAGGGUGGGCAGGAGCCC | 0.16

Single results of other studies
Substance | target | test | system | setting | how to read | endpoint | result
PhoQ, residues 284 288 289 292 302 303 SMYGEC | PhoP, residues 12 14 15 18 19 HEGLL (Escherichia coli, UniProt P23836) | Sort-seq, refers to: YFP reporter | E. coli | PhoQ-PhoP variant library, added: 10 µM Mg2+ | relative to: high Mg2+ state, higher = stronger signaling | fold induction | 0.988

Excerpt of the above (block 3):
Oligonucleotide | RBNS enrichment (R)
UGGCCUCUGCCUGGGGCCUCCAGAAGCUGCUCCUUUACCCUCUUGGUCCCAUGGCUGAAGCUGGAGCAGCGGAUUGCUCUGGAGCAGCCAAGGCCGCCAGCGUGUGGAGC | 0.253
GAAAUCAGGAUAAUUAGUAACAAUUCUAGUUCUUUCUCUCCCCGCUCUACUUCUUUUUUUUCCCUCUUUCUCCCUUUCUCUGUCUAUCACCCUCCAUUUUUUCAUUACUC | 1.22
